Measured values of several laboratories.
Each numbered part is a random draw from the data of one study; scales do not carry over between parts. Substitutions count along the parent as printed.

Series 1 — technique: RNA Bind-n-Seq; form: RNA; medium: in vitro; concentration: 200 nM; notes: whole 134-nt RNA, ends assumed; together with: 150 mM LiCl; relative to: input library; direction: higher = stronger binding; measurement: log2 enrichment; each molecule: 7-deaza-guanosine replaces G
Target: Ras GTPase-activating protein-binding protein 1, full length (G3BP1, Homo sapiens, UniProt Q13283)
Sequence of UniProt Q13283 (whole entry, looked up): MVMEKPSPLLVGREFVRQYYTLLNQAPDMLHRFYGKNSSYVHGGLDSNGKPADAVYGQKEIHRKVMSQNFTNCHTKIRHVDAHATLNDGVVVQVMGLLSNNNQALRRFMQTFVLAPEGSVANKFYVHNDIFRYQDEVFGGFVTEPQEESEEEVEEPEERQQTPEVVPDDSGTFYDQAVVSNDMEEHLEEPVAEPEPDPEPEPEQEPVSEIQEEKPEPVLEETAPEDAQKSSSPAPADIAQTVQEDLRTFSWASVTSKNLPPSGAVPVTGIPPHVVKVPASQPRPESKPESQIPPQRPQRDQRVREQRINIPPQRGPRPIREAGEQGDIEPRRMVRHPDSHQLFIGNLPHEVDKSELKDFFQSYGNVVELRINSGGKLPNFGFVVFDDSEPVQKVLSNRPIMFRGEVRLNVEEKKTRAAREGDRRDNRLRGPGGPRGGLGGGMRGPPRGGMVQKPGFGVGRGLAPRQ
All sequences stand within: GGGAGUUCUACAGUCCGACGAUC … UGGAAUUCUCGGGUGUCAAGG
UCCUGUGCUACACAUCGUAUGUACCGAAUCGGGAAAAAAGGAAAAAAGGAAAAAAGGGGAAAGUAUUAUGUUACGCCGUUCGGAUCUGCA: -0.531
UUUUGCAUUUAGGGUUUUAACCAAGAAGAUCUGGAAGAAGAAAAAGGUGAAACACAGGUAAAAGAAGCAGAAGAUUCAGAUUCUGAUGAU: -3.29
UAACUUUAGAGGAGGAUCUGAUGGAUAUGGCAGUGGACGUGGAUUUGGGGAAGGCUAUAAUGGGUAUGGAGGAGGACCUGGAGGUGGCAA: -0.0889
GCAGGAAGUAAAAACAAAUGGAAAUGCUUCGGAUAGUGGCAGGGGUGGGGGUUGCUAAGGAAAGGGUGGGAAGGGAGUGGGUAAAGAGUU: 0.257
AGUCCUGUGCUACACAUCGUAUGUACCGAAUCGGGUUUUGGGGUUUUGGUUUUGGGGAAAGUAUUAUGUUACGCCGUUCGGAUCUGCACU: -0.587
GGCCCGACCUGAUCGACUUUGAUAAGCUGAAGGACUCCAAUGCCCGGCACAACCUGGAGCACGCAUUCAAUGUGGCUGAGCGCCAGCUGG: -0.165
CUGUGCUACACAUCGUAUGUACCGAAUCGGGAAAAAAAGGGAAAAAAAGGGUUUUUUUGGGAAAGUAUUAUGUUACGCCGUUCGGAUCUG: -1.08
ACCAUGCAGGUGGGCAUCUUUGGGAAGUGGGGCAAGGGGGGGGUAGGGAGGGGGGUAACACUUUGGGAACAGGUGGUCCCAGGUCGUUUC: -0.0101
UCCUCAAGUCCUGUGCUACACAUCGUAUGUACCGAAUCGGCGGGGCGGCGGAAAGUAUUAUGUUACGCCGUUCGGAUCUGCACUUCCAGC: 0.772
CACAGACAACACGCACCCACACAGACACAGAGGGAAGGUGUUGGGAUGGGGACAGGGUGCACAGCAGGGCGGGGUAGGACCCCAGCCCCU: -1.52

Series 2 — target: CCNF, cyclin fold, Cln2 fusion (human); technique: yeast growth competition, sequencing; medium: yeast; notes: weak parent motif; relative to: not given; direction: higher = stronger binding; measurement: normalised enrichment score
Starting sequence: MASTL docking peptide (human); PMIAKNLMCELDE
I3F: -0.247
L11N: -0.251
K5N: -0.146
C9M: -0.037
M8E: -0.384
N6R: 0.627
A4L: -0.403
K5H: 0.137
D12A: 0.144

Series 3 — technique: RNA Bind-n-Seq; form: RNA; medium: in vitro; concentration: not given; relative to: input RNA pool; direction: higher = stronger binding; measurement: bound/input enrichment
Target: RING finger protein unkempt homolog, zinc fingers 1-6, GST-SBP tag (UNK, Homo sapiens, UniProt Q9C0B0, residues 30-357)
Notes: RNA with constant flanks, human and mouse sites, ends assumed
All sequences stand within: GGGAGUUCUACAGUCCGACGAUC … CAACAGAGGAUUGAGCAUCA
Residues (chain): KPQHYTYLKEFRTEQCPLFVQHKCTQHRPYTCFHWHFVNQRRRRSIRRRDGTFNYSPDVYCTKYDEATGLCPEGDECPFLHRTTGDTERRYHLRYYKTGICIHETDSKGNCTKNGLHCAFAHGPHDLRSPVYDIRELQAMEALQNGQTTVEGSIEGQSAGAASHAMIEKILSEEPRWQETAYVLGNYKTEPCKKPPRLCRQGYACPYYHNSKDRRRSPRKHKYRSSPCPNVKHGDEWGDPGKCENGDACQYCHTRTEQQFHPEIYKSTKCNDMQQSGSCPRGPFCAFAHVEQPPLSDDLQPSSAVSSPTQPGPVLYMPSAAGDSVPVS
UUUCAUAUGAACUGCUGGAAAAAGUUAAAAACAACAACUUUUAAUGAUAAAAUUGACAAGGAUUUUCUACAAGGAAUCUGUCUCACUCCCGAUUGUGAGGGAAUCAUUUCUAAGAUUAUC: 0.133 ratio
UUAGGAGAAGAUUGCAGAUGAUAGAAUGUCCUAUCCGCCCAUCCCCUGCUUUGCAGCUCAAAUAGUUACUCUAAGCUUUGGGUAUUCUACAAAGUUUUCUUAAUUCUUGGAGCAGAGUAU: 0.108 ratio
AUGACAGGAAACAUCCCAACAUGGCUUACUGAGCUAGGAAAAACCUGCCCAUUUUUCUUUCCUUUUGAUACCCGGCAAAUGCUUUUUUAUGUAACUGCAUUUGAUCGGGACCGAGCAAUG: 0.192 ratio
UCAACGCCUAAAGUCAAGAAGAGCGUCAGCAGUAGAAUCCAUGAAGCAGUGAAAGCCAUUGCCCUUUGUCAUAAUGUCACUCCUGUGUAUGAGGCUCGGGCUGGCAUCACUGGGGAGACU: 0.0592 ratio
ACAAAUGACAACCAGUCAGAAAGUUCAGUAUCUACCCCAUCUGCCUCAUUUGAACCUGAUGUAUGUGAAAAUCCCGAGUCCAAAAAUACAGAGCUUUGUGAGACACCAGCUACCUCUGAC: 0.18 ratio
GCAACAAGUGAAGAAGAAGCUAAAUUUGGUGCCAGACGUUUAGCCCGUAGUCUGCAGAAACUAGGUUUUCAGGUCAUCUUCACAGAUUUUAAGGUGGUGAAUGUUUUGGCAGUGUGUAAC: 0.562 ratio
UUUUACUGGGAGAGGUAAGACAAGAGGAAACGUUUAGCAUCAGUGACUCACAAAUCAGCAACACAGAAUUUCUGCAAGUAAUUGAAAUCCAUAACCAUCAGCCUUGUUCAAAACUUUUUA: 0.282 ratio
GUCGGUUUCAUUUUCCUUUGGAAUUUCUGCUUUACAGACAGAACAAUGGCAGCCCGAGUACUUAUAAUUGGCAGUGGAGGAAGGGAACAUACGCUGGCCUGGAAACUUGCACAGUCUCAU: 0.357 ratio
CUAAGGUUCAAUGUUCAAGAGAAUGGGUUUUUAUCUUCAUUGCCUUAUUUAGGCUCUUGGUUAUGUAUGAUCCUGUCUGGUCAAGCUGCUGACAAUUUAAGGGCAAAAUGGAAUUUUUCA: 0.273 ratio
GCCAUCAUCCCCUAUAUCCCCACUCUCAUCACGCAGCUCACACAGAAGCUGCUGGCUGUUAGUAAGAAUCCCAGUAAACCUCAUUUCAAUCACUACAUGUUUGAAGCAAUAUGCUUGUCU: 0.377 ratio
CAUGCACCUCUGGAGCAGCAACACAUUACCCACAAGGAGCCCCUGGUAGCAAAUGAUAUCCUGAACCAUCCCAACUUUGUGAAGAAGAACUUGUGUAACAGCUUCAGUGACCGGACAGUG: 0.302 ratio

Mixed results
PhoQ, residues 284 288 289 292 302 303 ASVMEA
fold induction (PhoP, residues 12 14 15 18 19 NQFFI (Escherichia coli, UniProt P23836); Sort-seq, refers to: YFP reporter; E. coli; PhoQ-PhoP variant library, together with: 10 µM Mg2+; relative to: high Mg2+ state, higher = stronger signaling): 3.85
